Measured values gathered from unrelated publications.
Protocols differ between the studies behind these lines. “And” joins repeats or separate records; there may be more than shown. Numbers after ± are the reported error.
Cell line: HeLa

CCC(=CCc1c(O)cc2c(c1O)C(=O)CC(c1ccc(O)c(OC)c1)O2)CC (centres unmarked) has a log IC50 of 1.06 log µM (cytotoxicity, MTT; 48 h, with: S9 fraction).
For COc1ccc2ncc(F)c(CC[C@@]3(O)CO[C@@H]4[C@@H](NCc5ccc(C)cc5)CO[C@@H]43)c2n1, the IC50 was 37.6 µg/mL (cytotoxicity; 24 h).
For CCC(=CCc1c(O)cc2c(c1O)C(=O)CC(c1ccccc1O)O2)CC (centres unmarked), the log IC50 was 1.56 log µM (cytotoxicity, MTT; 48 h, with: S9 fraction).
The CC50 of COc1c(Br)cc(CCNC2=CC3=NCCc4c[nH]c(c43)C2=O)cc1Br is reported as 0.6 µM (cell growth or viability, MTT; 72 h).
With NC(=O)c1cccc(NC(=O)c2cc(-c3ccc(Cl)cc3)n(-c3ccccc3)n2)c1 the CC50 was > 100 µM (cell growth or viability).
With O=C1C(=O)c2[nH]cc3c2C(=C1Cl)NCC3 the CC50 was 20 µM (cell growth or viability, MTT; 72 h).
With N=C(N)Nc1ccc(CNC(=O)c2cc(-c3ccccc3)n(-c3ccccc3)n2)cc1 the CC50 was > 50 µM (cell growth or viability).
CN(CCCC[C@H](NC(=O)[C@H](CCCN)NC(=O)[C@@H](NC(=O)[C@H](Cc1ccccc1)NC(=O)c1ccc(C(C)(C)C)cc1)C1CCC1)C(=O)N[C@@H](CO)C(=O)NCCOCCOCCCCCCCl)C1CC2CCC1C2 (some centres unmarked) gave a CP50 of 15 ± 1.9 µM (cell penetration, chloroalkane penetration; 4 h, chloroalkane-tagged compound).
With COC(=O)c1cc(N(C)S(=O)(=O)c2ccc(OC)cc2)cc(N(C)S(=O)(=O)c2ccc(OC)cc2)c1 the IC50 was > 100 µM (cell growth or viability, XTT; 72 h).
The IC50 of COc1ccc2ncc(F)c(C[C@H](O)[C@H]3OC[C@H](NCc4ccc5c(c4)OCCO5)CO3)c2c1 is reported as > 128 µg/mL (cytotoxicity; 24 h).
CN1CCCNC(=O)c2cccc(c2)C(=O)NCCCN(C)CCCNc2cccc3c2C(=O)c2cccc(c2C3=O)NCCC1 has a viability of 23.6% (cell growth or viability, CCK-8; 1.5 µM, 48 h).
CCC(=CCc1c(O)cc2c(c1O)C(=O)CC(c1cccc(O)c1)O2)CC (centres unmarked) gave a log IC50 of 1.47 log µM (cytotoxicity, MTT; 48 h, with: S9 fraction).
With NC(=O)c1cccc(NC(=O)c2cc(-c3ccccc3)n(-c3ccccc3)n2)c1 the CC50 was > 50 µM (cell growth or viability).
COc1ccc2ncc(F)c(C[C@H](O)[C@H]3OC[C@H](NCc4cc5c(nn4)OCCS5)CO3)c2n1 gave an IC50 of > 128 µg/mL (cytotoxicity; 24 h).
NC[C@H]1O[C@H](O[C@H]2[C@H](O)[C@@H](O[C@H]3O[C@H](Cn4cc(CNC(=S)Nc5ccc6c(c5)C(=O)OC65c6ccc(O)cc6Oc6cc(O)ccc65)nn4)[C@@H](O)[C@H](N)[C@H]3O)[C@H](N)C[C@@H]2N)[C@H](O)[C@@H](O)[C@@H]1O gave a cytotoxicity of 2 ± 0.3% (5 µM, 24 h).
COc1cc(/C=C/C=C2\SC(=S)NC2=O)ccc1O has a viability of 1.02 and 0.984 (CellTiter-Glo; 1.25 µM, 24 h, unit not given; baseline: untreated).
CCC(=CCc1c(O)cc2c(c1O)C(=O)CC(c1cccc(O)c1OC)O2)CC (centres unmarked) gave a log IC50 of 1.43 log µM (cytotoxicity, MTT; 48 h, with: S9 fraction).
S=c1n(-c2ccccc2)c2c3ccccc3nc3[n+]2[n]1[Ir-3]12([S]3)([c]3ccccc3-c3cccc[n+]31)[c]1ccccc1-c1cccc[n+]12: “cellular iridium uptake” 2.85 ± 0.31 fmol/cell (ICP-MS; 10 µM, 24 h, 37 °C).
Cc1nc(-c2ccncc2)sc1C(=O)Nc1cccc(C(N)=O)c1 has a CC50 of > 50 µM (cell growth or viability).
CCCN(CCCC[C@H](NC(=O)[C@H](CCCN)NC(=O)[C@@H](NC(=O)[C@H](Cc1ccccc1)NC(=O)c1ccc(C(C)(C)C)cc1)C1CCC1)C(=O)N[C@@H](CO)C(=O)NCCOCCOCCCCCCCl)C1CC2CCC1C2 (some centres unmarked) has a CP50 of 14 ± 3.8 µM (cell penetration, chloroalkane penetration; 4 h, chloroalkane-tagged compound).
COc1ccc2nccc(CC[C@H]3OC[C@H](NC(=O)c4ccc5c(c4)NC(=O)CO5)CO3)c2c1 gave an IC50 of > 128 µg/mL (cytotoxicity; 24 h).
Cc1ccc(C(NC(=O)c2cc(-c3ccccc3)n(-c3ccccc3)n2)c2ccncc2)cc1 (centres unmarked) gave a CC50 of 48 µM (cell growth or viability).
For Cc1ccc(S(=O)(=O)n2cc3c4c2C(=O)C(N)=CC4=NCC3)cc1, the CC50 was 0.6 µM (cell growth or viability, MTT; 72 h).
The CC50 of NC(=O)c1cccc(NC(=O)c2cccnc2N2CCOCC2)c1 is reported as > 50 µM (cell growth or viability).
CC(C)C[C@H](NC(=O)[C@@H](NC(=O)[C@H](Cc1ccccc1)NC(=O)c1ccc(CN2CCOCC2)cc1)C1CCC1)C(=O)N[C@@H](CCCCN(C)C1CC2CCC1C2)C(=O)N[C@@H](CO)C(=O)NCCOCCOCCCCCCCl (some centres unmarked) gave a CP50 of 6.9 ± 0.7 µM (cell penetration, chloroalkane penetration; 4 h, chloroalkane-tagged compound).
For COc1ccc2ncc(F)c(C[C@H](O)[C@H]3OC[C@H](NCc4ccc5c(n4)NC(=O)CO5)CO3)c2c1, the IC50 was > 128 µg/mL (cytotoxicity; 24 h).
For N=C(N)NCc1cccc(NC(=O)c2cc(-c3ccccc3)n(-c3ccccc3)n2)c1, the CC50 was 37 µM (cell growth or viability).
For COc1ccc2ncc(F)c(C(O)C[C@H]3OC[C@H](NCc4ccc(Cl)c(Cl)c4)CO3)c2n1 (some centres unmarked), the IC50 was > 128 µg/mL (cytotoxicity; 24 h).
O=C(Nc1ccc(N2CCNCC2)cc1)c1cc(-c2ccccc2)n(-c2ccccc2)n1 has a CC50 of 24 µM (cell growth or viability).

Some of these lines once more:
The CC50 of COc1c(Br)cc(CCNC2=CC3=NCCc4c[nH]c(c43)C2=O)cc1Br is reported as 0.6 µM (cell growth or viability, MTT; 72 h).
Cc1nc(-c2ccncc2)sc1C(=O)Nc1cccc(C(N)=O)c1 has a CC50 of > 50 µM (cell growth or viability).
For COc1ccc2ncc(F)c(C[C@H](O)[C@H]3OC[C@H](NCc4ccc5c(n4)NC(=O)CO5)CO3)c2c1, the IC50 was > 128 µg/mL (cytotoxicity; 24 h).
CCC(=CCc1c(O)cc2c(c1O)C(=O)CC(c1cccc(O)c1OC)O2)CC (centres unmarked) gave a log IC50 of 1.43 log µM (cytotoxicity, MTT; 48 h, with: S9 fraction).
COc1ccc2ncc(F)c(C[C@H](O)[C@H]3OC[C@H](NCc4cc5c(nn4)OCCS5)CO3)c2n1 gave an IC50 of > 128 µg/mL (cytotoxicity; 24 h).
